{"data": "Measured values of several laboratories", "organism": "HIV-1", "note": "Numbers after ± are the reported error."}
{"SMILES": "CC(=NNC(=O)CN1c2c(-c3ccccc3)n[nH]c2-c2ccccc2S1(=O)=O)c1ccc(C)s1", "test": "viral replication", "test system": "PBMC", "EC50": "12.3 µM"}
{"SMILES": "N#Cc1ccc(Oc2cc(Cl)ccc2Cl)c(OCc2ccncc2)c1", "test": "viral replication", "test system": "MT-2, IIIB wild type", "EC50": "12 µM"}
{"SMILES": "C[C@H](NP(=O)(OCCOCn1cnc2c(=O)[nH]c(N)nc21)Oc1ccccc1)C(=O)OCc1ccccc1 (some centres unmarked)", "test": "viral replication", "EC50": "0.6 µM"}
{"SMILES": "CC(=NNC(=O)CN1c2c(-c3ccccc3)n[nH]c2-c2ccccc2S1(=O)=O)c1cc2ccccc2o1", "test": "viral replication", "test system": "PBMC", "EC50": "79 µM"}
{"SMILES": "Cc1ccc(S(=O)(=O)N2C(=O)CSC2c2cccc(Br)c2)cc1 (centres unmarked)", "test": "viral cytopathicity, MTT", "test system": "MT-4, IIIB", "EC50": "> 125 µM"}
{"SMILES": "Nc1nc2c(ncn2COCCO)c(=O)[nH]1", "test": "giant cell formation", "test system": "CCRF-CEM", "EC50": "> 250 µM"}
{"SMILES": "CC(C)CN(C[C@@H](O)[C@H](Cc1ccccc1)NC(=O)O[C@H]1CCOC1)S(=O)(=O)c1ccc(N)cc1", "test": "viral replication, Monogram susceptibility", "test system": "wild-type control strain", "EC50": "0.0055 µM"}
{"SMILES": "N=C(N)NCCC[C@H](NC(=O)[C@H](CCCNC(=N)N)NC(=O)[C@H](CCCNC(=N)N)NC(=O)[C@H](CCCNC(=N)N)NC(=O)[C@H](CCCNC(=N)N)NC(=O)[C@H](CCCNC(=N)N)NC(=O)[C@H](CCCNC(=N)N)NC(=O)CCCCCCCCCCCCC(=O)OC[C@@H]1O[C@H](n2cc(F)c(N)nc2=O)CS1)C(=O)O", "test": "viral replication, MAGI single-round infection", "test system": "IIIB, X4-tropic", "setting": "cell-free virus", "EC50": "3 µM"}
{"SMILES": "COc1ccc(-n2c([C@H](Cc3cc(F)cc(F)c3)NC(=O)CN3CCN(S(=O)(=O)c4ccc(N)cc4)CC3=O)nc3cc(F)ccc3c2=O)cc1", "test": "viral replication, MTT", "test system": "MT-4, IIIB", "EC50": "0.31 ± 0.14 µM"}
{"SMILES": "CC(=NNC(=O)CN1c2c(-c3ccccc3)n[nH]c2-c2ccccc2S1(=O)=O)c1ccc2c(c1)OCCO2", "test": "viral replication", "test system": "PBMC", "EC50": "> 100 µM"}
{"SMILES": "N=C(N)NCCC[C@H](NC(=O)[C@H](CCCNC(=N)N)NC(=O)[C@H](CCCNC(=N)N)NC(=O)[C@H](CCCNC(=N)N)NC(=O)[C@H](CCCNC(=N)N)NC(=O)[C@H](CCCNC(=N)N)NC(=O)[C@H](CCCNC(=N)N)NC(=O)CCCCCCCCCCCCC(=O)OC[C@@H]1O[C@H](n2ccc(N)nc2=O)CS1)C(=O)O", "test": "viral replication, MAGI single-round infection", "test system": "BaL, R5-tropic", "setting": "cell-free virus", "EC50": "16.6 µM"}
{"SMILES": "Cc1cc(/C=C/C#N)cc(C)c1Oc1cc(Nc2ccc(C#N)cc2)c(N)cc1[N+](=O)[O-]", "test": "viral replication", "test system": "TZM-bl, NL4-3", "EC50": "≤ 0.0007 µM"}
{"SMILES": "COc1ccc(-n2c([C@H](Cc3ccccc3)NC(=O)CN3CCN(S(=O)(=O)c4ccc([N+](=O)[O-])cc4)CC3=O)nc3cc(Br)ccc3c2=O)cc1", "test": "viral replication, MTT", "test system": "MT-4, IIIB", "EC50": "2.4 ± 0.81 µM"}
{"SMILES": "O=C1Nc2ccc(Cl)cc2[C@@](C#CC2CC2)(C(F)(F)F)O1", "test": "viral replication", "test system": "MT4, IIIB wild type", "EC50": "0.00231 ± 0.00023 µM"}
{"SMILES": "Nc1ccc(S(=O)(=O)N2CCN(CC(=O)N[C@@H](Cc3cc(F)cc(F)c3)c3nc4ccccc4c(=O)n3-c3ccc(S(=O)(=O)N4CCS(=O)(=O)CC4)cc3)C(=O)C2)cc1", "test": "viral replication, MTT", "test system": "MT-4, IIIB", "EC50": "1.51 ± 1.34 µM"}
{"SMILES": "Cc1ccc(S(=O)(=O)N2C(=O)CSC2c2ccccc2O)cc1 (centres unmarked)", "test": "viral cytopathicity, MTT", "test system": "MT-4, IIIB", "EC50": "> 125 µM"}
{"SMILES": "CC(=NNC(=O)CN1c2c(-c3ccccc3)n[nH]c2-c2ccccc2S1(=O)=O)c1ccc(Br)s1", "test": "viral replication", "test system": "PBMC", "EC50": "> 100 µM"}
{"SMILES": "Nc1c(C(=O)NCc2ccc(F)cc2F)c(=O)n(O)c2ncc(/C=C/C(=O)NCCO)cc12", "test": "viral infectivity, single-round infection", "test system": "HOS, integrase wild type", "EC50": "≥ 0.2 µM"}
{"SMILES": "N#Cc1ccc(Oc2cc(Cl)ccc2Cl)c(COCc2ccncc2)c1", "test": "viral replication", "test system": "MT-2, IIIB wild type", "EC50": "1.8 µM"}
{"SMILES": "Cc1ccc(S(=O)(=O)N2C(=O)CSC2c2cccc([N+](=O)[O-])c2)cc1 (centres unmarked)", "test": "viral cytopathicity, MTT", "test system": "MT-4, IIIB", "EC50": "> 125 µM"}
{"SMILES": "CC(=NNC(=O)CN1c2c(-c3ccccc3)n[nH]c2-c2ccccc2S1(=O)=O)c1cc2ccccc2oc1=O", "test": "viral replication", "test system": "PBMC", "EC50": "22.9 µM"}
{"SMILES": "CC[C@H](C)CN(C[C@@H](O)[C@H](Cc1ccccc1)NC(=O)[C@@H](NC(C)=O)[C@@H](C)CC)S(=O)(=O)c1ccc2ncsc2c1", "test": "viral replication, Monogram susceptibility", "test system": "wild-type control strain", "EC50": "0.0027 µM"}
{"SMILES": "CC(=NNC(=O)CN1c2c(-c3ccccc3)n[nH]c2-c2ccccc2S1(=O)=O)c1sccc1Br", "test": "viral replication", "test system": "PBMC", "EC50": "> 100 µM"}
{"SMILES": "Cc1ccc(N2C(=O)CCC2(C#N)c2ccc(OCc3ccccc3)cc2)cc1 (centres unmarked)", "test": "viral replication", "test system": "human PBMC, LAI", "EC50": "16.7 µM"}
{"SMILES": "Cc1cc(/C=C/C#N)cc(C)c1Oc1ccc(N)c(Nc2ccc(C#N)cc2)c1", "test": "viral replication", "test system": "TZM-bl, NL4-3", "EC50": "≤ 0.0007 µM"}
{"SMILES": "Cc1ccc(N2C(=O)CCC2(C#N)c2ccc(OCc3ccc(Cl)cc3Cl)cc2)cc1 (centres unmarked)", "test": "viral replication", "test system": "human PBMC, LAI", "EC50": "5.3 µM"}
{"SMILES": "CCOC(=O)[C@H](C)NP1(=O)OCC(OCn2cnc3c(=O)[nH]c(N)nc32)CO1 (some centres unmarked)", "test": "viral replication", "setting": "288 h", "EC50": "9 µM"}
{"SMILES": "Cc1ccc(NC(C#N)c2ccc(OCc3ccc(Cl)cc3Cl)cc2)cc1 (centres unmarked)", "test": "viral replication", "test system": "human PBMC, LAI", "EC50": "< 5 µM"}
{"SMILES": "Cc1ccc(S(=O)(=O)N2C(=O)CSC2c2ccc(O)cc2)cc1 (centres unmarked)", "test": "viral cytopathicity, MTT", "test system": "MT-4, IIIB", "EC50": "> 125 µM"}
{"SMILES": "NC(=O)CCNC(=O)c1ccccc1S", "test": "viral replication", "test system": "human monocytes/macrophages, subtype B BaL, CCR5-tropic", "EC50": "18.6 µM"}
{"SMILES": "Cc1ccc(S(=O)(=O)N2C(=O)CSC2c2ccc(Cl)cc2)cc1 (centres unmarked)", "test": "viral cytopathicity, MTT", "test system": "MT-4, IIIB", "EC50": "> 125 µM"}
{"SMILES": "O=C(O)c1cccc(-c2ccc(/C=C3\\SC(=S)N(CCc4ccccc4)C3=O)o2)c1", "test": "viral replication", "test system": "MT-2", "EC50": "< 0.1 µM"}
{"SMILES": "Cc1cn([C@H]2C[C@H](N=[N+]=[N-])[C@@H](CO)O2)c(=O)[nH]c1=O", "test": "viral replication", "test system": "PBMC, LAI", "EC50": "0.0018 µM"}
{"SMILES": "CCCC(=O)OCSc1ccccc1C(=O)NCCC(N)=O", "test": "viral replication", "test system": "human monocytes/macrophages, subtype B ADA, CCR5-tropic", "EC50": "20.1 µM"}
{"SMILES": "Cc1cc(C#N)cc(C)c1Oc1nc(NC2CCN(Cc3ccc(S(N)(=O)=O)cc3)CC2)ncc1-c1ccoc1", "test": "viral replication", "test system": "MT4, IIIB, wild type", "EC50": "0.0028 µM"}
{"SMILES": "O=C(CN1CCN(S(=O)(=O)c2ccc([N+](=O)[O-])cc2)CC1=O)N[C@@H](Cc1ccccc1)c1nc2ccccc2c(=O)n1-c1ccc(S(=O)(=O)N2CCOCC2)cc1", "test": "viral replication, MTT", "test system": "MT-4, IIIB", "EC50": "1.21 ± 0.65 µM"}
{"SMILES": "CC(=NNC(=O)CN1c2c(-c3ccccc3)n[nH]c2-c2ccccc2S1(=O)=O)c1ccc(Cl)s1", "test": "viral replication", "test system": "PBMC", "EC50": "> 100 µM"}
{"SMILES": "Cc1cc(C)cc(C(=O)c2cc(Cl)ccc2OCCn2c3c(c(=O)[nH]c2=O)CCC3)c1", "test": "cell-to-cell transmission", "test system": "MOLT-4/R5 and GHOST(3)R5, CCR5-tropic", "setting": "CD4-dependent", "EC50": "0.04 µM"}
{"SMILES": "COc1ccc(-n2c([C@H](Cc3cc(F)cc(F)c3)NC(=O)CN3CCN(S(=O)(=O)c4ccc(N)cc4)CC3=O)nc3cc(Cl)ccc3c2=O)cc1", "test": "viral replication, MTT", "test system": "MT-4, IIIB", "EC50": "0.14 ± 0.03 µM"}
{"SMILES": "Cc1cc(C#N)cc(C)c1Oc1cc(Nc2ccc(C#N)cc2)c(N)cc1[N+](=O)[O-]", "test": "viral replication", "test system": "MT-2, drug-resistant", "EC50": "0.005 to 0.604 µM"}
{"SMILES": "COc1ccc(-n2c([C@H](Cc3cc(F)cc(F)c3)NC(=O)CN3CCN(S(=O)(=O)c4ccc([N+](=O)[O-])cc4)CC3=O)nc3cc(S(C)(=O)=O)ccc3c2=O)cc1", "test": "viral replication, MTT", "test system": "MT-4, IIIB", "EC50": "1.84 ± 0.25 µM"}
{"SMILES": "CC(=NNC(=O)CN1c2c(-c3ccccc3)n[nH]c2-c2ccccc2S1(=O)=O)c1ccncc1", "test": "viral replication", "test system": "PBMC", "EC50": "80.5 µM"}
{"SMILES": "COc1ccc(-n2c([C@H](Cc3cc(F)cc(F)c3)NC(=O)CN3CCN(S(=O)(=O)c4ccc([N+](=O)[O-])cc4)CC3=O)nc3ccccc3c2=O)cc1", "test": "viral replication, MTT", "test system": "MT-4, IIIB", "EC50": "0.53 ± 0.15 µM"}
{"SMILES": "Cc1ccc(S(=O)(=O)N2C(=O)CSC2c2ccccc2)cc1 (centres unmarked)", "test": "viral cytopathicity, MTT", "test system": "MT-4, IIIB", "EC50": "> 125 µM"}
